Results of several laboratories.
Numbered parts are unrelated; each lists some results of a single study.

Sample 1 — technique: aptamer microarray, sandwich; form: DNA with 2'F-ANA; matrix: in vitro; tested at: 200 nM; with: Cy3 exosite-II aptamer, 400 nM; reading: higher = stronger binding; strand: GGTTGGTGTGGTTGG
Target: Prothrombin, mature alpha-thrombin (F2, Homo sapiens, UniProt P00734)
Setting: whole 15-mer aptamer, many near background
Modification	mean fluorescence intensity
2'F-ANA at 1 3 5 8 9 10 14 15	45 a.u.
2'F-ANA at 1 3 4 5 7 9 10 12 13 14	47.8 a.u.
2'F-ANA at 2 3 5 6 7 10 11 12 14 15	51.1 a.u.
2'F-ANA at 5 10 12 14	43.9 a.u.
2'F-ANA at 3 5 6 8 10 12	75.5 a.u.
2'F-ANA at 1 2 4 8 9 10 11 14 15	48.7 a.u.
2'F-ANA at 3 5 8 10 13 14	69.5 a.u.
2'F-ANA at 1 3 8 11 12 13 15	476 a.u.
2'F-ANA at 1 3 9 11 12 13	425 a.u.
2'F-ANA at 4 8 9 10 12 15	129 a.u.
2'F-ANA at 3 5 9 10 11 14	92.1 a.u.
2'F-ANA at 3 4 5 9 13 14 15	61 a.u.
2'F-ANA at 1 2 4 5 7 8 10 12 13 14 15	47.9 a.u.
2'F-ANA at 1 2 3 4 8 9 10 13 15	50.8 a.u.
2'F-ANA at 1 8 9 10 11 14	50.1 a.u.
2'F-ANA at 2 4 7 9 10 11 14 15	64.1 a.u.
2'F-ANA at 5 10 12 14 15	45.2 a.u.
2'F-ANA at 2 5 6 7 8 9 10 14	58.6 a.u.
2'F-ANA at 2 4 6 7 12 14	149 a.u.
2'F-ANA at 1 2 5 7 9 11 12 13 14	50.1 a.u.
2'F-ANA at 1 3 4 8 11 14	80.9 a.u.
2'F-ANA at 2 4 6 9 10 11 14	58.5 a.u.

Sample 2 — technique: protein binding microarray; form: double-stranded DNA, one strand shown; matrix: in vitro; tested at: not given; reference: not given; reading: higher = stronger binding
Target: Histone acetyltransferase KAT6A, both winged helices, GST fusion (KAT6A, Homo sapiens, UniProt Q92794, residues 1-181)
Setting: 8-mer, flanks averaged, mean of 2 arrays, mostly near background
Residues (chain): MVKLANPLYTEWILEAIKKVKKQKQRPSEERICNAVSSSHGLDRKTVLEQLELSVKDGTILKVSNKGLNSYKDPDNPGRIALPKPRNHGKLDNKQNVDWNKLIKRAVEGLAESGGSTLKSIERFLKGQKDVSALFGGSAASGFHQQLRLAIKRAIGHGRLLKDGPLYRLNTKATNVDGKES
Strand	E-score
AACCGCCG	0.272
CAAGACAG	-0.269
CCTAAGCA	-0.163
TGGACACA	-0.0287
CCCGGGCG	0.332
CGAATCGA	0.0707
AATATCGA	0.00588
AATTTGTA	-0.0496
CCAGATAC	-0.121
ACAGGTAC	-0.136
CCACGTAC	-0.199
CCATCCGC	0.175
GAGACGCC	0.185
ATTAAGCC	0.0205
CAGCTGGC	-0.0548
GAATCCCC	-0.12
TAAAGATA	-0.0623
AGCTTGTG	-0.26
ACATCCAA	-0.163
GTAATTTA	0.019
CCGATCGC	0.278
CACAAAAG	-0.0917
AAAGCAGT	-0.109
ACCCACCT	-0.207
TACAGCTA	-0.225

Sample 3 — target: Cln2 (Saccharomyces cerevisiae); observed: peptide binding; technique: competitive growth sequencing; form: peptide; organism: Saccharomyces cerevisiae; strain: unfused Cln2 strain; setting: peptide tiling library; reading: direction not given
Molecule	enrichment score
QDYERRLLRQIVIQNE	-0.408
SPREGHMMDALYAQVK	-0.406
RDLFDCDFGDLTPLDF	1.34
CFRCLLFSFSGRSGVE	-0.745
GQLVIPLDELTLDTSF	1.37
RVSGLLSWTLSRVLWL	-0.707
KSKHEEEEWTDDDLVE	1.08
IQKKLRFEDTLEFVGF	-1.09
SFLIEYEFLIPPSLKP	0.408
LAKRALKYTD	-0.817
RSLKLDGLLEEN	-0.43
VLLKRLQDVVSERANH	-1.42
ALLRRLQDVANDRGSH	-0.742

Sample 4 — technique: protein-binding microarray; form: double-stranded DNA, one strand shown; matrix: in vitro; tested at: 2200 nM top; setting: 60-bp whole probe; with: salmon DNA 0.4 mg/ml; reference: random background probes; reading: higher = stronger binding; all sequences stand within: GCCTAGCAC … GTCTTGATTCGCTTGACGCTGCTG
Target: Interferon regulatory factor 7, full length, phosphomimetic (IRF7, Homo sapiens, UniProt Q92985, residues 1-503, S471D/S472D/S475D/S476D/S477D/S483D/S484D/S487D)
Sequence of UniProt Q92985 (whole entry, unmodified, looked up): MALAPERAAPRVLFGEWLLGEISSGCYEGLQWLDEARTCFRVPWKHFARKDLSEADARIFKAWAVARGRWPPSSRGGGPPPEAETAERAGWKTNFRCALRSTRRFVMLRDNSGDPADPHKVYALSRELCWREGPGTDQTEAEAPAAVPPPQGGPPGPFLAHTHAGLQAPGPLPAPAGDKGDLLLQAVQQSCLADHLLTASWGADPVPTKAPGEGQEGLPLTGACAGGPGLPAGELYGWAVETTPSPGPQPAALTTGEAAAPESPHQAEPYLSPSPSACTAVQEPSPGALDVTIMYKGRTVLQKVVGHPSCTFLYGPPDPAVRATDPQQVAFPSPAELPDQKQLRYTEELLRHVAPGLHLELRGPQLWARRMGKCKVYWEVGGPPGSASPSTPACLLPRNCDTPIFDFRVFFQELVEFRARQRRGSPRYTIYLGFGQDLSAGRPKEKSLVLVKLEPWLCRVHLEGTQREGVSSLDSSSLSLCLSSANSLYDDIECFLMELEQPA
Strand	fitted relative affinity [z-score]
GACGAACTGGACTTTCGGGACGTGCTA	2.42
AAAGTCTTCACTCTGCTGAAGTGCTAG	0.193
TCACTTATTGCTTCCTCACTGTGCTAG	2.29
TTAGATATCAGATTCGATTAGTGCTAG	1.15
AAGTTTTTATTTTCTGAATGGTGCTAG	3.2
GACGGACTGGGTATCGGGAAGTGCTAG	-0.623
GACGTTATCGGGTTTCGAGACGTGCTA	2.05
TTAGAACTGATACTGGATTAGTGCTAG	-0.474
TAAGATTTCAGTCTCGATTAGTGCTAG	0.507
GACGGTATCGACCATCGGGACGTGCTA	-0.166
TTAGAACTGAGTATCGAATAGTGCTAG	-0.538
TTCGCTTTCTTTACCACATTGTGCTAG	3.11
TTAGGACTGGGTATCGGATAGTGCTAG	-0.423
TCAGATTTCCATTATTGACTGTGCTAG	1.46
TCAATTTTGAGACTCATACTGTGCTAG	0.248
TTTGATTCCAGTTTCGATTAGTGCTAG	6.57
TTAGGGCTGGGGTATCGGTTAGTGCTA	-0.798

Sample 5 — technique: RNA Bind-n-Seq; form: RNA; matrix: in vitro; tested at: 365 nM; reference: no-protein control; reading: higher = stronger binding
Target: RNA binding protein fox-1 homolog 2, RRM domain, GST-SBP tag (RBFOX2, Homo sapiens, UniProt O43251-10, residues 100-194)
Setting: natural RNA segment, single round, ends assumed
All sequences stand within: GGGAGUUCUACAGUCCGACGAUC … UGGAAUUCUCGGGUGCCAA
Residues (chain): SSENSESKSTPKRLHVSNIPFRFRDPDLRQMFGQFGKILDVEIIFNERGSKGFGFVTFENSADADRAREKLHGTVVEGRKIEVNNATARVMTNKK
Strand	RBNS enrichment (R)
UACCUUGGCACUCAGGUGCUGGUAUGUGCAUUCUUGCUUCCAAAGGAUUGACAGUAACAAAUUCUCAAAGCUUGACUGGAGCUGGCUGCAGCUCAAAACAGUGCCUCCUG	0.503
CCUGCUCAGUUAUCUAAUGUCUUAGAUCAGUGGUCCCCAAAUUUUGCUACAUAUUAGAAUCAUCUGGGAGGUUUUAAACAAAUUCUGAUGCCCAGGUUGCACCCCAUGCC	2.2
ACAGCGGCCUCAGCGUCCCCAGAGCCGAGCCAGGGUGUGAGUGCAUGUGAACGUUGAGUACACAUGAGUGCGUGUAUGCCCCCAGGCUGGGUCAGCUCUUCUGUGGAUUG	0.568
CUAUCUGAUAGAGGUAUUUUCUGUGGCCCUGGGAGCUGUCUGUCUUUCCCCUACCCCCAAGGAUGCCAGGAAGACGUCCACCAUUAGCCAUGUGGCAACCUUUACUUCUA	0.34
UGUAUCAGAUCCAAAGCUCUAUUGUACAGCAAAUUAUUCUUCAAAGUGAUUAUAACCAGUUACAACCUGUAUUUCUUUUUGCAGCCAGCACAGUGUGAACCAACUCAGAC	0.32
AUUUCUAUGCUUCUUCCUUUAUGAAAGCAUAACUUAAAACAUGAAAAUAAUGUUGGUUAUAGAAAUAUUUACUGUUCAAGGUCUGUAAUUGUAUUUUAAAAUGAUGUAGU	0.924
GUAGAGCCAGGGGUGCAAGUGCCAUCCACACUUGCAGUGAAUGGCUUUUCCUUUUAGGUUUAAGUCCUGUCUGUCUGUAAGGCGUAGAAUCUGUCCGUCUGUAAGGCGUA	0.236
GCCCGUCAUUCAGAGACCACUGUGAACAUUUGGAUGUAGAUGCUGUUCUCCCUAACUCUUUGUUCCAGUGCUGGGAAUUGAAUAGUGAGGUUCAGGAUUGCUAAGCGAGU	0.564
